# Measurements pooled from the literature.
# Several values in a cell are separate wells, animals, samples, runs or records. Numbers after ± are the reported error.
SMILES,cell line,assay,conditions,scale,measurement,value
COc1ccccc1-c1ccncc1C(=O)Nc1nnc(OCc2ccc(Cl)cc2)s1,MDA-MB-436 BRCA1-mutant,colony formation,0.375 µM,higher = more survival,colony count,15 and 14.5 and 14
COC(=O)c1cc(NC2=NC(=O)C(=Cc3ccc(N(C)C)cc3)S2)ccc1OC(C)=O,A549,item: CRIP1,"2.93 µM, 24 h",reference: DMSO,mRNA level,200 fold change
CC(C)c1ccc(N(C)c2ccc3c(c2)OCC[C@H]3CNc2cnccc2C(=O)O)cc1,C32,"cell growth or viability, ATP luminescence",7 days,,IC50,5.36 nM
CCOc1cncc(-c2ccc(NC(=O)C3(c4ccnc(NS(=O)(=O)C5CC5)n4)CCOCC3)nc2)n1,JURL-MK1,"cell proliferation, CellTiter-Glo","72 h, myeloid haematological cancer",,IC50,43 nM
O=C(C[Se]C(=O)c1cc2ccccc2[nH]1)Nc1cccc(C(F)(F)F)c1,NCI60 ovarian subpanel,"total growth inhibition, inhibitor",five-dose,,mean TGI,2950 nM
Cc1ncsc1-c1ccc(C(C)NC(=O)C2CC(O)CN2C(=O)C(NC(=O)CCCCCCCCCCN2CCCC(Nc3ncc(Cl)c(Nc4ccccc4S(=O)(=O)C(C)C)n3)C2)C(C)(C)C)cc1 (stereo not shown),22Rv1,"RNA-seq, item: PEX11A mRNA",concentration not given,reference: DMSO,log2 fold change,-1.32
CN1CCCNC(=O)c2cccc(c2)C(=O)NCCCN(C)CCCNc2cccc3c2C(=O)c2cccc(c2C3=O)NCCC1,SAS,"RNA-Seq, item: SAE1 mRNA","1 µM, 6 h",reference: untreated cells,log2 fold change,-0.543
CN(C)Cc1nc(Nc2ccc(-c3cnc4cc(F)ccn34)c3c2C(=O)NC3)ccc1C1CCOC1 (stereo not shown),mouse BMDC with OT-1 T cells,,"dose not given, 5 days, with: OVA",reference: DMSO,T-cell proliferation,≤ 2.5 fold
CCCCCCCCCCCC(=O)N[C@H](CO)C[C@@H](O)c1ccccc1,HeLa,HPLC-MS/MS,"1 µM, 24 h",,Cer 24:1 level,23300 pmol/sample and 24000 pmol/sample and 23900 pmol/sample
O=C(C[Se]C(=O)c1cc2ccccc2o1)Nc1cccc(C(F)(F)F)c1,NCI60 ovarian subpanel,"total growth inhibition, inhibitor",five-dose,,mean TGI,3590 nM
CC(C)(C)c1cc(-c2ccc3cccnc3n2)nc(-c2ccc3cccnc3n2)c1.COc1ccncc1.[Cl-].[Cl-].[Ru+2].c1ccc2cc3nc4c5cccnc5c5ncccc5c4nc3cc2c1,SK-MEL-28,photocytotoxicity,"light 633 nm, oxygen 18.5%",,EC50,654 ± 13 nM
CCN(C(=O)c1cc(F)ccc1Oc1nncnc1N1CCC2(C1)CN([C@H](CCCN(C)CCOC)C(C)C)C2)C(C)C,J82,cell growth or viability,7 days,,GI50,> 10000 nM
O=C(Nc1nnc2c1c(-c1ccc(Cl)cc1)nc1sc(=Cc3ccco3)c(=O)n12)c1ccccc1 (mixture of isomers),IGROV-1,SRB,"10 µM, NCI60 single-dose screen",reference: untreated,cell growth,40.4%
CO[C@@H]1[C@@H](OC(N)=O)[C@@H](O)[C@H](Oc2ccc3c(O)c(NC(=O)c4ccc(O)c(CC=C(C)C)c4)c(=O)oc3c2C)OC1(C)C,HCT-116 BRCA2 wild-type,,"75 µM, replicate A",reference: untreated,colony survival,90.7%
Cn1ncc2cc(-c3cncc(Cl)c3N3CCC4(CCNC4=O)CC3)ccc21,LS174T,"gene expression, microarray, item: GADD45G mRNA","concentration not given, 24 h",reference: untreated cells,log2 fold change,-2.09
COP(=O)(OC)OCC1(O)O[C@H](COP(=O)(O)O)[C@@H](O)[C@@H]1O (stereo partly shown),HepG2 sgCTRL,CCK-8,concentration not given,reference: control,cell proliferation,44.3% and 48.4% and 41%
O=C(C[Se]C(=O)c1cccnc1Nc1cccc(C(F)(F)F)c1)Nc1cccc(C(F)(F)F)c1,NCI60 ovarian subpanel,"total growth inhibition, inhibitor",five-dose,,mean TGI,3800 nM
CCN1CCN(Cc2ccc(C(=O)Nc3ccc(C)c(NCc4cnc5[nH]ccc5c4OC)c3)cc2C(F)(F)F)CC1,SNU-1040,,"1 µM, 3 days","reference: vehicle, 100% DMSO",cell growth,85%
CN(C)CCN1CCN(c2ccc3nc(-c4ccc5nc(-c6ccc(C(F)(F)F)cc6)[nH]c5c4)[nH]c3c2)CC1,SF-539,SRB,"10 µM, 48 h",,growth percent,65.8%
CCN(CC)CC(=O)Nc1cccc(-n2cc(-c3ccc4ccc(-c5cn(-c6cccc(NC(=O)CN(CC)CC)c6)nn5)cc4c3)nn2)c1,RCC4,"PCR angiogenesis array, item: HIF1A","5 x IC50, 4 h, normoxia",reference: untreated,fold regulation,-1.14
Cc1ccc([N+](=O)[O-])cc1S(=O)(=O)N(C)/N=C/c1cnc2ccc(Br)cn12,HuT78,"Wnt/beta-catenin signalling, NanoString IPA","50 nM, 10 h",direction not given,activation z-score,1.15
COc1cc([C@@H]2O[C@@H](c3cc(OC)c(O[C@@H]4O[C@H](CO)[C@@H](O)[C@H](O)[C@H]4O)c(OC)c3)[C@H](CO)[C@H]2CO)cc(OC)c1O,PCS-210-010 human pre-adipocytes,differentiation,"5 to 20 µM, 48 h, early differentiation",,triglyceride level,decreased
C=CC(=O)N1[C@@H](c2ccc3c(c2)OCO3)c2[nH]c3ccccc3c2C[C@H]1C(=O)NC1CC1,rat DRG neurons,,"1.111 µM, 48 h, with: vincristine 40 nM",,mean neuron degeneration,76.9%
O=C(C[Se]C(=O)c1ccccc1Nc1ccccc1)Nc1cccc(C(F)(F)F)c1,NCI60 ovarian subpanel,cell growth,"10 µM, 48 h, one-dose",,mean growth percent,-70.7%
CN(C)c1ccc(-n2cc(COC(=O)[C@@]3(C)C=C(C(=O)OC(C)(C)C)C(=O)CC3)nn2)cc1,HeLa,quantitative western blot,"concentration not given, 4 (unit not given), with: EGF",,pERK/ERK ratio,0.45
CC(=O)OC[C@H]1O[C@@H](n2cc(CSc3nc4ccccc4n3Cc3cn([C@@H]4O[C@H](COC(C)=O)[C@@H](OC(C)=O)C(OC(C)=O)[C@H]4OC(C)=O)nn3)nn2)[C@H](OC(C)=O)C(OC(C)=O)[C@@H]1OC(C)=O (stereo in doubt),HEK293,MTT,125 ppm,,cytotoxicity,77.7%
CNS(=O)(=O)Nc1nccc(Cc2c(C)c3ccc(Oc4ncccc4F)cc3oc2=O)c1F,KHOS/NP,"cell viability, CellTiter-Glo",7 days,,IC50,16.3 nM
CC(=O)NCCCN(C)CCCNc1cccc2c1C(=O)c1cccc(NCCCN(C)CCCNC(C)=O)c1C2=O,SAS,"RNA-seq, item: MT-TW mRNA","1 µM, 24 h",reference: untreated cells,log2 fold change,1.29
O=C(Nc1cc(OCCN2CCCC2)c2ccccc2n1)c1cccc(C(=O)Nc2cc(OCCN3CCCC3)c3ccccc3n2)n1,U2OS,"cell viability, CellTiter-Glo",72 h,reference: IC50 U2OS over WI-38,selectivity ratio,4
COc1cc(N2CCN(C(=O)C3CCCN3)CC2)ccc1Nc1ncc(Cl)c(Nc2ccccc2P(C)(C)=O)n1 (stereo not shown),Ba/F3 EML4-ALK,flow cytometry,"concentration not given, 3 h",,late apoptotic cells,8.61% and 6.84% and 7.2%
Cc1c(Cl)cccc1Nc1ccccc1C(=O)[Se]CC(=O)Nc1cccc(C(F)(F)F)c1,NCI60 ovarian subpanel,"total growth inhibition, inhibitor",five-dose,,mean TGI,3550 nM
Cc1[nH]c(=S)[nH]c(=O)c1/N=N/c1nnc(S)s1,Vero,"cell viability, MTT",0.625 µg/mL,,inhibition,12.1 ± 1.25%
O=C(C[Se]C(=O)c1ccc2ccccc2n1)Nc1cccc(C(F)(F)F)c1,NCI60 ovarian subpanel,"cell growth, inhibitor",five-dose,,GI50,2000 nM
C1=[N+]2CCCC[N+]3=Cc4ccc5[n]4[Au-]23[n]2c1ccc2-c1nc2ccccc2nc1-5.F[P-](F)(F)(F)(F)F,SF-268,NCI60 five-dose screen,,,TGI,5.63 -log M
